Assay results pooled from the literature.
Compare with care: the assays were run in different laboratories. Numbers after ± are the reported error.
HDAC6 ZnF-UBD domain: Protein deacetylase HDAC6, ZnF-UBD domain (HDAC6, Homo sapiens, UniProt Q9UBN7)
Chain of UniProt Q9UBN7 (whole entry, looked up): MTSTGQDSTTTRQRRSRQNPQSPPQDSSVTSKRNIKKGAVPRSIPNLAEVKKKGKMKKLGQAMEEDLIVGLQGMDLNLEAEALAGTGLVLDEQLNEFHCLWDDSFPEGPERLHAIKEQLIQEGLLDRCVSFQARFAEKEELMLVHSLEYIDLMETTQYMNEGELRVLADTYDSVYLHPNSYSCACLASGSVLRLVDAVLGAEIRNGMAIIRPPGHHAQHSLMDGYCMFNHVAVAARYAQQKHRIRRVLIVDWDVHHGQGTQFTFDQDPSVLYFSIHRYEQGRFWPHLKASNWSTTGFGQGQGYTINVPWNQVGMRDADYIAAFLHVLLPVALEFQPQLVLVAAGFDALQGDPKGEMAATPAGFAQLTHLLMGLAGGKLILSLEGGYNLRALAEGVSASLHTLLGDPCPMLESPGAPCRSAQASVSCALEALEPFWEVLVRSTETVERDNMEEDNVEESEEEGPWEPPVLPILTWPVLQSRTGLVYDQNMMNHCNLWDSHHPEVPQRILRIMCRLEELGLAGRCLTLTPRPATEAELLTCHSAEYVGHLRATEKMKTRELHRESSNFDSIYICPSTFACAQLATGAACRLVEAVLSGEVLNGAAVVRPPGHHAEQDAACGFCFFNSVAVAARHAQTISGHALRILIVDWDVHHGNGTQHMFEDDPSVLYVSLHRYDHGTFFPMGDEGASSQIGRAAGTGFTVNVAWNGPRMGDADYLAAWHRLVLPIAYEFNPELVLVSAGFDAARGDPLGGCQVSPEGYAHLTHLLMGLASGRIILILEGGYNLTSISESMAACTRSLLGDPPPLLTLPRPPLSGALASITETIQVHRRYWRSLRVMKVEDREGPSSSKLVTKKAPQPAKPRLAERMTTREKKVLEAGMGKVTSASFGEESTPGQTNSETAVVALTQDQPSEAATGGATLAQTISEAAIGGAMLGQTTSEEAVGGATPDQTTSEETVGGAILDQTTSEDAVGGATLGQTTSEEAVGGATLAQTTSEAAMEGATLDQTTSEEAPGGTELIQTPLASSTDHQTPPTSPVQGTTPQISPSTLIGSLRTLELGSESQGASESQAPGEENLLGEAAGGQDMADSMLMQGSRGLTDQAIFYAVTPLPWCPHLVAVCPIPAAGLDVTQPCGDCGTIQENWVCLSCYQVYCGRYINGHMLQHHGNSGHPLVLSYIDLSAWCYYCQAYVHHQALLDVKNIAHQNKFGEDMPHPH
SMARCA2: SWI/SNF-related matrix-associated actin-dependent regulator of chromatin subfamily A member 2 (SMARCA2, Homo sapiens, UniProt P51531)
Chain of UniProt P51531 (whole entry, looked up): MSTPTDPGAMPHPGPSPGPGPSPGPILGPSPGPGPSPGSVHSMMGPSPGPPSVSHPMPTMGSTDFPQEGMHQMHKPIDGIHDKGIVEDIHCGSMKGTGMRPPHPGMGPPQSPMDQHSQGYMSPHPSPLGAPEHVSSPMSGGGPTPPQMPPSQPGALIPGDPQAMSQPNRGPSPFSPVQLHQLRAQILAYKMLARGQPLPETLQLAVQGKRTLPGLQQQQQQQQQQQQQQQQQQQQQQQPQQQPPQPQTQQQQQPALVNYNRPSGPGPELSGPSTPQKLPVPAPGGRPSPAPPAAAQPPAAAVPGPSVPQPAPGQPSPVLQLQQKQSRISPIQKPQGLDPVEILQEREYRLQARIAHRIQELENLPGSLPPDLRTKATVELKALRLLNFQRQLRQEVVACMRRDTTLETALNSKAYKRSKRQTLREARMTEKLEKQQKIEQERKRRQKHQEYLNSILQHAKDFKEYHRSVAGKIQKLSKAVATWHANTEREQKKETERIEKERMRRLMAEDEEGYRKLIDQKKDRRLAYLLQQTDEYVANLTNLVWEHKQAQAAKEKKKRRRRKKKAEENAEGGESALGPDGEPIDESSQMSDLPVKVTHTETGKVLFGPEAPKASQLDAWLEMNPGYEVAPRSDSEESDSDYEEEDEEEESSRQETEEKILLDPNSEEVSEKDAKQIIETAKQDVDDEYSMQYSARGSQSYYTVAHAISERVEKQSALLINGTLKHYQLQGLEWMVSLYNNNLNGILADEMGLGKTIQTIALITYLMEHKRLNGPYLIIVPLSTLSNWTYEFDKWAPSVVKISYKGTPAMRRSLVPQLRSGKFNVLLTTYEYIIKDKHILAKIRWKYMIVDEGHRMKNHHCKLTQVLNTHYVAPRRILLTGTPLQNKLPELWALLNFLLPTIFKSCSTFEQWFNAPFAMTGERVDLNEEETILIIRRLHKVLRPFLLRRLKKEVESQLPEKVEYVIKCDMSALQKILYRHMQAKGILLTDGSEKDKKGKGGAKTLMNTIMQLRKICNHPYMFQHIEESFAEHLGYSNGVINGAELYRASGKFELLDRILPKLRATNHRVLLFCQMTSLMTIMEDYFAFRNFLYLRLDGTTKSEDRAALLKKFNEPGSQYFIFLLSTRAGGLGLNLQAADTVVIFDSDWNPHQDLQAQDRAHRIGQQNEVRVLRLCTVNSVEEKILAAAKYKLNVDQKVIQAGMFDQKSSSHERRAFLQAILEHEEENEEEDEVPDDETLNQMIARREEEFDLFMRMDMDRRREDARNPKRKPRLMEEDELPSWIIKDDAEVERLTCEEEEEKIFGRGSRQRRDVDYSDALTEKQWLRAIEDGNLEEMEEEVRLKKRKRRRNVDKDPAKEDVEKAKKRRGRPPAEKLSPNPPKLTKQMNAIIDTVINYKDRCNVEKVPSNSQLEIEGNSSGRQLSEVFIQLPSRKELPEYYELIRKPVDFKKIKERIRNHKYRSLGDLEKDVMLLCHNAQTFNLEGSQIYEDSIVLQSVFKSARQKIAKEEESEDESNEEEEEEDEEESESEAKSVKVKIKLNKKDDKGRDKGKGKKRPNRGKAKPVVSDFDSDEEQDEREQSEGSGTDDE
Chain of UniProt Q9HB89 (whole entry, looked up): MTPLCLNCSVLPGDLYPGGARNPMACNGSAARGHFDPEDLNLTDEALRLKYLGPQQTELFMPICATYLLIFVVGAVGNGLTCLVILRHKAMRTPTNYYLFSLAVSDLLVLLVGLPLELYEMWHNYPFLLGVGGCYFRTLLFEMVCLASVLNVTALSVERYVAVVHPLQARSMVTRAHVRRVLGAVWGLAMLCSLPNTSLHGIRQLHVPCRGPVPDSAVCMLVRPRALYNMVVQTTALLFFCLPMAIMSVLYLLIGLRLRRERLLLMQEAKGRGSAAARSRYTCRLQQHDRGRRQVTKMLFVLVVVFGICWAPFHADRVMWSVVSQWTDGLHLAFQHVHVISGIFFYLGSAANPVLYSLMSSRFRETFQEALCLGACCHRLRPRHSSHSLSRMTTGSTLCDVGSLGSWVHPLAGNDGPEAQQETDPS
Chain of UniProt P08684 (whole entry, looked up): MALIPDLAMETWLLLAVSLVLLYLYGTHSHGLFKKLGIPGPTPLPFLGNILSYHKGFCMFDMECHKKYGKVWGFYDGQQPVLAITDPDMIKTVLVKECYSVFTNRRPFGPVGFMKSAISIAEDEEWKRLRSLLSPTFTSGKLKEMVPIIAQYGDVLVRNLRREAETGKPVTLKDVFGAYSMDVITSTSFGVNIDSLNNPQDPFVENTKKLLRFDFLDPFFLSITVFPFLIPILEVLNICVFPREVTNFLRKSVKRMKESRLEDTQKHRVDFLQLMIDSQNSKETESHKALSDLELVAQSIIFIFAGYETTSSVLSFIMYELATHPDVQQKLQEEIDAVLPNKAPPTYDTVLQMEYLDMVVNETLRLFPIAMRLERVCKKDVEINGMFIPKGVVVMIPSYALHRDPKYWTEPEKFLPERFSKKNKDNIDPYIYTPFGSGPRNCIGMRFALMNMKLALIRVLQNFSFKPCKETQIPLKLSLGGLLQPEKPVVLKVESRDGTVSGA
Chain of UniProt P00698 (whole entry, looked up): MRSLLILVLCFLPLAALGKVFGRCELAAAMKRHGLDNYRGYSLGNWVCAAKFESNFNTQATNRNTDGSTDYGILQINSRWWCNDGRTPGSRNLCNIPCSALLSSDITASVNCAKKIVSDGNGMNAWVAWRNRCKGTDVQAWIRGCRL
Chain of UniProt O14965 (whole entry, looked up): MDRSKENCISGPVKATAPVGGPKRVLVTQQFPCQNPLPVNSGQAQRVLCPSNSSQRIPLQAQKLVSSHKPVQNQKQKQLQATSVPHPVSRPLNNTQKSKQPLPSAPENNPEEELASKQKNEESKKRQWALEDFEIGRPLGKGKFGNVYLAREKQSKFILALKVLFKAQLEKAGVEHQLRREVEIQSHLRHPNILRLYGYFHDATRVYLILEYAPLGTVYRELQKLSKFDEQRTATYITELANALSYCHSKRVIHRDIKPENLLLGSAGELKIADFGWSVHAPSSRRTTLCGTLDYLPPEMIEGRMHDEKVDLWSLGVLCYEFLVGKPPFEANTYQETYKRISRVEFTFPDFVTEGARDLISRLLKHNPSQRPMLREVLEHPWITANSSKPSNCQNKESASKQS
Chain of UniProt P34995 (whole entry, unmodified, looked up): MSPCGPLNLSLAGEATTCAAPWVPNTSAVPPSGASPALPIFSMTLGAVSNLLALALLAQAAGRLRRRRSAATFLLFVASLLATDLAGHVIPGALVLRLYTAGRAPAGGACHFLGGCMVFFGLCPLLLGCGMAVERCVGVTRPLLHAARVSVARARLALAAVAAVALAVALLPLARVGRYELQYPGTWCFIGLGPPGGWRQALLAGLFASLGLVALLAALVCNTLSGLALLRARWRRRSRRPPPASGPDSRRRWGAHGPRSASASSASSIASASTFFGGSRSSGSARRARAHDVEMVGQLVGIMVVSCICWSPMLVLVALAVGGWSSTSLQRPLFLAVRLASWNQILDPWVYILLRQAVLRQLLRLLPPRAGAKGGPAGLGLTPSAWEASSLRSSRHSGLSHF

`O=C(O)CCn1ccccc1=O` has a Kd of > 1 mM (HDAC6 ZnF-UBD domain).
`CCCCC[C@H](O)/C=C/[C@H]1[C@H](O)CC(=O)[C@@H]1C/C=C\CCCC(=O)O` gave an EC50 of 2.46 nM (PTGER1 (Homo sapiens, UniProt P34995, C136A); IP1 accumulation, agonist; AD293; EP1 C136A mutant).
Under “fold change in expression”, `Cn1cc(-c2ccc(-c3cncc(Cl)c3N3CCC4(CCNC4=O)CC3)cc2)cn1` is recorded as 4.24 (COLO 205; microarray, measured: LGALS1; concentration not given, 6 h, gene set Galectin-1; reference: untreated cells).
`CC[C@@H]1[C@H](F)C(=O)N[C@@H]1COc1nccc2cc(C(N)=O)c(OC)cc12` gave an IC50 of 3.7 µM (Aurora kinase A (AURKA, Homo sapiens, UniProt O14965); ATP-site binding, ActivX KiNativ profiling; THP-1 cell lysate; Lys2 AurA probe site).
`Nc1nnc(-c2ccccc2O)cc1N1CCN(Cc2ccc(N3CCN(CCOc4cccc5c4C(=O)N(C4CCC(=O)NC4=O)C5=O)CC3)c(F)c2)CC1` (centres unmarked) gave a DC50 of 7.6 nM (SMARCA2; degrader, immunoblot; H1792 SMARCA4 wild-type; 24 h).
`O=C(O)CCc1nc2ncccn2n1` gave a Kd of > 1 mM (HDAC6 ZnF-UBD domain).
The DC50 of `Nc1nnc(-c2ccccc2O)cc1N1CCN(Cc2ccc(OCCOCCNc3cccc4c3C(=O)N(C3CCC(=O)NC3=O)C4=O)c(F)c2)CC1` (centres unmarked) is reported as 297 nM (SMARCA2; degrader, immunoblot; NCI-H1975; 96 h).
`O=c1nc(N2CCN(CC3CCCCC3)CC2)sc2c([N+](=O)[O-])cc(C(F)(F)F)cc12` has an IC50 of > 10 µM (Cytochrome P450 3A4 (CYP3A4, Homo sapiens, UniProt P08684); 60 (unit not given), pH 7.4).
For `O=C(O)CCn1cccn1`, the Kd was > 1 mM (HDAC6 ZnF-UBD domain).
With `CC(C)C[C@H](NC(=O)[C@H](Cc1ccccc1)NC(=O)[C@H](Cc1ccc(O)cc1)NC(=O)CNC(=O)[C@H](CCCNC(=N)N)NC(=O)[C@H](CO)NC(=O)[C@H](CCC(N)=O)NC(=O)[C@H](CO)NC(=O)[C@H](C)NC(=O)[C@H](Cc1ccccc1)NC(=O)[C@@H]1CCCN1C(=O)[C@H](CO)NC(=O)[C@H](CCC(N)=O)NC(=O)[C@H](Cc1ccccc1)NC(=O)[C@H](CCC(=O)O)NC(=O)[C@H](CCC(=O)O)NC(=O)[C@H](CC(=O)O)NC(=O)[C@@H](NC(=O)[C@H](CCCNC(=N)N)NC(=O)[C@@H](N)Cc1ccccc1)C(C)C)C(=O)N[C@@H](Cc1ccccc1)C(=O)N[C@@H](CCCNC(=N)N)C(=O)N1CCC[C@H]1C(=O)N[C@@H](CCCNC(=N)N)C(=O)N[C@@H](CC(N)=O)C(N)=O` the EC50 was 0.09 nM (NMUR1 (Homo sapiens, UniProt Q9HB89); beta-arrestin recruitment, agonist, PathHunter luminescence; CHO-K1; 90 min, 37 °C).
With `CC(=O)N[C@H]1[C@H](O[C@H]2[C@H](O)[C@@H](NC(C)=O)C(O)O[C@@H]2CO)O[C@H](CO)[C@@H](O[C@@H]2O[C@H](CO)[C@@H](O)[C@H](O)[C@H]2NC(C)=O)[C@@H]1O` (some centres unmarked) the Kd was 0.0154 ± 0.0018 mM (Lysozyme C (LYZ, Gallus gallus, UniProt P00698); surface sampling native MS; charge state 8+).

For quick reference, copied from above:
`O=C(O)CCn1ccccc1=O` has a Kd of > 1 mM (HDAC6 ZnF-UBD domain).
